# Results of several laboratories.
# Lines come from different studies, so protocols differ. Several values in a cell are separate wells, animals, samples, runs or records. ± marks the error that the study gave.
Substance,assay,system,setting,how to read,endpoint,result
CCCCCc1cc(O)c2c(c1)OC(C)(C)[C@@H]1CCC(C)=C[C@@H]21,,male ND4 Swiss-Webster mice,"intraperitoneal, 10 and 25 mg/kg",,duration of locomotor depression,120 to 210 min
C#CCN(C)[C@H](C)Cc1ccccc1,immunostaining,"APP/PS1 mice, GFAP-positive astrocytes, dentate gyrus","oral, 10 mg/kg, 3 days",,GABA level,decreased
COc1ccc(-c2cc([C@H]3[C@@H](c4ccc(Cl)cc4)C[C@@H]4CC[C@H]3N4C)on2)cc1,"nicotine-induced hypothermia, antagonist",mouse,with: nicotine 2.5 mg/kg sc,,ED50,> 20 mg/kg
NC(=O)C[S+]([O-])C(c1ccccc1)c1ccccc1 (stereo not shown),,C57BL/6J mouse,"oral, 128 mg/kg, 5.5 h cumulative",relative to: vehicle-treated mice,locomotor activity,~9 fold
Polymyxin B,LAL test,human heparinized plasma,"60 min, 37 °C, with: Pseudomonas aeruginosa LPS 5 ng/mL",,endotoxin neutralizing concentration,< 400 ng/mL and 219 ng/mL
COC(=O)[C@@H]1[C@H]2CC[C@@H](C[C@H]1c1ccc(Cl)c(C)c1)N2C,"nicotine-induced antinociception, antagonist, hot-plate test",mouse,with: nicotine 2.5 mg/kg sc,,ED50,> 20 mg/kg
EDDP perchlorate,elevated plus maze,Sprague-Dawley rat,"subcutaneous, 10 mg/kg, 30 min, 300 s test",,time in open arms,80 s
Cc1ccc([C@H]2C[C@@H]3CC[C@H]([C@H]2c2cc(-c4ccc(Cl)cc4)no2)N3C)cc1,"nicotine-induced antinociception, antagonist, hot-plate test",mouse,with: nicotine 2.5 mg/kg sc,,ED50,> 20 mg/kg
COC(=O)[C@H]1[C@@H](OC(=O)c2ccccc2)C[C@@H]2CC[C@H]1N2C,,"rat, medial forebrain bundle","intraperitoneal, 10 mg/kg",relative to: baseline,ICSS rate,171 ± 18.9%
Cc1cc([C@H]2C[C@@H]3CC[C@H]([C@H]2c2cc(-c4ccccc4)no2)N3C)ccc1Cl,"nicotine-induced hypothermia, antagonist",mouse,with: nicotine 2.5 mg/kg sc,,ED50,> 20 mg/kg
C#Cc1ccc2c(c1)C(c1ccccn1)=NCc1c(C(=O)OCC)ncn1-2,von Frey,"mouse, sciatic nerve CCI","ip, 16 mg/kg, 45 min to 4 h, with: vehicle after 45 min",,AUC of paw withdrawal threshold,1.9 ± 0.29 g·h
C#Cc1ccc2c(c1)C(c1ccccn1)=NCc1c(-c3cnco3)ncn1-2,,"ICR mouse, lactic acid-depressed nesting","dose not given, 60 min nesting period",relative to: vehicle,zones cleared,increased
CNC(C)Cc1ccc2c(c1)OCO2 (racemic),"Drug Effects Questionnaire, refers to: Feel Drug",human,"oral, 0.75 mg/kg, mean over session, unit not given",relative to: pre-dose baseline,subjective drug effect rating,24.4
